Experimental data collected from several papers.
Protocols differ between the studies behind these lines.

| Compound | test | test system | setting | quantity | result |
| --- | --- | --- | --- | --- | --- |
| N=C(CC(O)c1cc2c(F)cc(F)cc2c2cc(C(F)(F)F)ccc12)Nc1ccc(F)c(F)c1 (stereo not drawn) | – | pooled human liver microsomes | 1 µM, pH 7.4 | unbound intrinsic clearance | 480 µL/min/mg |
| N#C[C@@]1(c2ccc3c(N)ncnn23)O[C@H](CO)[C@@H](O)[C@H]1O | – | dog plasma | 1-100 µM | unbound fraction in plasma | 0.0768 |
| C#Cc1cccc(Nc2ncnc3cc(OCCOC)c(OCCOC)cc23)c1 | – | brain | 100 mg/kg, 2 h | unbound brain concentration | 128 ng/g |
| COc1ccc2c(c1)CN(C(=O)CCN1CCC(Cc3ccccc3)CC1)CC[S@@+]2[O-] | – | healthy male volunteers, plasma | intravenous, 0.6 mg/kg | unbound Cmax | 0.6 µM |
| Cc1cc(C)c(CNC(=O)c2cc(Cl)c3c(c2C)O[C@@](C)([C@H]2CC[C@H](N(C)C)CC2)O3)c(=O)[nH]1 | ultracentrifugation | solution, alpha-1 acid glycoprotein, 0.1% | 600 ng/mL, 160 min | unbound fraction | 0.0772 |
| O=C1CC[C@H](N2Cc3cc(N4CCN(CC5CCN(c6ccc([C@@H]7c8ccc(O)cc8CC[C@@H]7c7ccccc7)cc6)CC5)CC4)ccc3C2=O)C(=O)N1 | rapid equilibrium dialysis | human blood | 2.5 µM, 6 h | unbound fraction in blood | 0.052 |
| O=C(Nc1cnn2ccc(N3CCC[C@@H]3c3cc(F)ccc3F)nc12)N1CC[C@H](O)C1 | – | porcine brain polar lipids | 10 µM, pH 7.4, 0.2% DMSO | unbound fraction in brain | 0.465 |
| CCO[C@H]1CCN(Cc2c(OC)cc(C)c3[nH]ccc23)[C@H](c2ccc(C(=O)O)cc2)C1 | – | healthy controls | oral, 200 mg, geometric mean | unbound AUC(0-12) | 3.13 µg·h/mL |
| CN(C(=O)C(C)(C)c1cc(C(F)(F)F)cc(C(F)(F)F)c1)c1cnc(N2C[C@H]3COCCN3C[C@H]2CO)cc1-c1ccc(F)cc1[14CH3] | – | pooled human liver microsomes | pH 7.4, substrate depletion | unbound intrinsic clearance | 1490 µL/min/mg |

Some of these lines once more:
| Compound | test | test system | setting | quantity | result |
| --- | --- | --- | --- | --- | --- |
| Cc1cc(C)c(CNC(=O)c2cc(Cl)c3c(c2C)O[C@@](C)([C@H]2CC[C@H](N(C)C)CC2)O3)c(=O)[nH]1 | ultracentrifugation | solution, alpha-1 acid glycoprotein, 0.1% | 600 ng/mL, 160 min | unbound fraction | 0.0772 |
